Measurements of several laboratories.
Each numbered part is a random draw from the data of one study; scales do not carry over between parts.

Sample 1
Target: TAR DNA-binding protein 43, full length, His tag (TARDBP, Homo sapiens, UniProt Q13148, residues 1-414)
Method: RNA Bind-n-Seq
Form: RNA
Matrix: in vitro
Concentration: 20 nM
Notes: 6-mer, flanks averaged, single round
Added: 150 mM LiCl
Relative to: input library
Direction: higher = stronger binding
Strand | 6-mer enrichment (R)
AGCAGU | 0.935
GGAAGA | 0.985
UUAAAU | 1
CACUAU | 0.912
AGGAGC | 0.966
UACGAU | 0.827
AAAACA | 0.844
CCCGAG | 1.11
CAGGUA | 0.931
UGAGAA | 1
UUGCGA | 0.957
ACGAAC | 0.813
CCGUGU | 1.08
CUUCUG | 0.872
CGCACA | 0.898
UAUAGU | 1.02
GGAAUC | 0.856
GUUAAU | 1.03
ACCAGA | 0.82
GUAUCC | 0.896
CCGAAG | 0.855
UGAAGU | 1.02
ACAUCA | 0.827
UCAGCG | 0.895
GUGAGU | 1.5

Sample 2
Target: Interferon regulatory factor 5, full length, phosphomimetic (IRF5, Homo sapiens, UniProt Q13568-2, residues 1-514, K96S/S451D/S453D/S456D/S462D)
Method: protein-binding microarray
Form: double-stranded DNA, one strand shown
Matrix: in vitro
Concentration: 250 nM
Notes: 60-bp whole probe
Added: salmon DNA 0.4 mg/ml
Relative to: random background probes
Direction: higher = stronger binding
Constant ends, left off below: GCCTAGCAC … GTCTTGATTCGCTTGACGCTGCTG
Strand | log fluorescence [z-score]
TTAGGTCTGGGTCTCGGTTAGTGCTAG | 0.153
TTAAGACTGGGTTTCGGTTAGTGCTAG | 8.07
GACGATTGCGGGTTTCGAGACGTGCTA | 1.64
GACGGACCGGGACTGGGGACGTGCTAG | -0.729
TCAGGTATCGGACTGGGTTAGTGCTAG | 1.1
TCATACATGGGTATAGAACTGTGCTAG | -0.1
TGAGGTATCCTTCTCCTTTAGTGCTAG | 0.218
TACAGCAGGGAGGGAGGCACGTGCTAG | -0.383
GACGGTTTTCTTTTCCTGACGTGCTAG | 0.946
GGTGCCTCGGGTTCAGGGAGGTGCTAG | -0.785
GTGACTCTGAACCTTCAGCTCGTGCTA | -0.332
GAGGATCTCAGACTGGAGACGTGCTAG | -0.67
GACGGTCTCGGACTAGGGACGTGCTAG | -0.243
GACGGTTTCGGTCTCGGGTCGTGCTAG | 9.52
GACAGACTGGGACTGGGGACGTGCTAG | -0.52
ATTTTTTTGTAATCGAAATCTGTGCTA | 1.67
GAGGATATCAGTCTCGAGACGTGCTAG | 0.496

Sample 3
Target: RNA binding protein fox-1 homolog 2, RRM domain, GST-SBP tag (RBFOX2, Homo sapiens, UniProt O43251-10, residues 100-194)
Method: RNA Bind-n-Seq
Form: RNA
Matrix: in vitro
Concentration: 365 nM
Notes: natural RNA segment, single round, ends assumed
Relative to: no-protein control
Direction: higher = stronger binding
Constant ends, left off below: GGGAGUUCUACAGUCCGACGAUC … UGGAAUUCUCGGGUGCCAA
Target sequence (chain): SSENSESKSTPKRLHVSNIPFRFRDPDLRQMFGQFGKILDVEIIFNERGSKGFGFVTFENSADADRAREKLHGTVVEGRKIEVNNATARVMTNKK
Strand | RBNS enrichment (R)
UAGAAAAUAAAAUAAAGCUUUGUAGUAUACUUGUACUUAGUUUGGGGAAAAAUGAAAUUAUAAUGCAUUUGUAUUUCCAUUUCUUGCAAAUAAAUAUUUUUCUUAGUCAA | 0.618
CCCAUUACUAAUGUAGAAAUGUUAAAUGGUAAAACAUAAUUUGCUAAAAUGACCAGUUUUCAGAUUCACCUGUGCGUGUGCCCCCCACUCCCAUCCCACCCUGUUCUUUC | 0.823
GGCGAGUGGGUAGACCCAAGGCUAGUGUCGCUGCUGUCAGUGGCUUUUUUUUUUUUUUUCAUCGAAGGCCUAAAAUGAUCGCGAUUCGAAAAAACAACGAGAAAAUGACG | 0.763
GAAUAAAAGGGAAUGUUUUGGCACCUGAUAUAAUCUGCCAGGCUAUGUGACAGUAGGAAGGAAUGGUUUCCCCUAACAAGCCCAAUGCACUGGUCUGACUUUAUAAAUUA | 2.3
AGCCACAGACUGAGGCUUCCGGGUGAGGAACACCCUGGGGCUACUAUGUUUGUAGGUCUCAUGUGCUCAGGGCUAUGAAGUAGGCUGUGCAGGUGACAGCACCCUGCUAG | 0.977
UCAUUCUGAAAUUAUUUCAUUUACCUACAGUGAAAUAAUUGUGAACUAAGUAGUCUUUCUGAAAACUGUUGGGUUCUAGGCAUUCCUGAGAAAUUGAAAGUGGCUACCUU | 0.312
AAUUUCAAAGUAUAAAUAUAUUUAUUAAGUAGCGCUGCGGCUAAGAAGGAAGAGUGAGGGGUCUGUCCAUGGGGUGGCAGUGAUUUCACACCCGCCUUUCUUGAAUGGCU | 0.706
CAAUGGUGUAGCGUCUUCCAAGGCCUUACUUUUUUUUCAGAAUGCUUUAAGUGUUGGCUGUAUGUGCUGGGUUCUCUAAAGAAGUUUCUCUUCCCGAGCUGUUUUUCCGA | 2.92

Sample 4
Target: Histone acetyltransferase KAT6A, winged helix 2, GST fusion (KAT6A, Homo sapiens, UniProt Q92794, residues 85-181)
Method: protein binding microarray
Form: double-stranded DNA, one strand shown
Matrix: in vitro
Concentration: not given
Notes: 8-mer, flanks averaged, mean of 2 arrays, mostly near background
Relative to: not given
Direction: higher = stronger binding
Target sequence (chain): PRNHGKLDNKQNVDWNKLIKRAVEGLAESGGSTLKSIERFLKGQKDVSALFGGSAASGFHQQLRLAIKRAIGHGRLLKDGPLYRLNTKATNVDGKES
Strand | E-score
ACCCCGAA | 0.102
AGTGGTAC | -0.139
GTGACCAA | -0.128
CAAAGACC | 0.0867
GAGCTTCC | 0.106
GAACGTTA | -0.235
AGTTGCGG | 0.154
ACCCATTG | 0.0533
CACGCGTG | 0.297
AAGACTGT | -0.15
GAATAACA | 0.132
AAACCGAA | 0.166
CCCCTGTC | -0.183
CGGGCGAA | 0.139
CCCGGTAA | -0.0108
AATCGACG | -0.0659
ACAGACTC | -0.155
AGACTTAT | -0.187
AACTGGCT | -0.102
CCGAGGCA | 0.0738

Excerpt of the above (sample 4):
Strand | E-score
CCCGGTAA | -0.0108
CCGAGGCA | 0.0738
GAGCTTCC | 0.106
GAATAACA | 0.132
AAGACTGT | -0.15
AAACCGAA | 0.166
GTGACCAA | -0.128
ACCCCGAA | 0.102
CCCCTGTC | -0.183
